# Results gathered from unrelated publications.
# Numbered parts are unrelated; each lists some results of a single study.

# Study 1 — method: RNA Bind-n-Seq; molecule type: RNA; matrix: in vitro; tested at: 1 µM; setting: whole 134-nt RNA, ends assumed; together with: 150 mM KCl; relative to: input library; direction: higher = stronger binding
# Target: Ras GTPase-activating protein-binding protein 1, C-terminal RGG region (G3BP1, Homo sapiens, UniProt Q13283)
# Chain of UniProt Q13283 (whole entry, looked up): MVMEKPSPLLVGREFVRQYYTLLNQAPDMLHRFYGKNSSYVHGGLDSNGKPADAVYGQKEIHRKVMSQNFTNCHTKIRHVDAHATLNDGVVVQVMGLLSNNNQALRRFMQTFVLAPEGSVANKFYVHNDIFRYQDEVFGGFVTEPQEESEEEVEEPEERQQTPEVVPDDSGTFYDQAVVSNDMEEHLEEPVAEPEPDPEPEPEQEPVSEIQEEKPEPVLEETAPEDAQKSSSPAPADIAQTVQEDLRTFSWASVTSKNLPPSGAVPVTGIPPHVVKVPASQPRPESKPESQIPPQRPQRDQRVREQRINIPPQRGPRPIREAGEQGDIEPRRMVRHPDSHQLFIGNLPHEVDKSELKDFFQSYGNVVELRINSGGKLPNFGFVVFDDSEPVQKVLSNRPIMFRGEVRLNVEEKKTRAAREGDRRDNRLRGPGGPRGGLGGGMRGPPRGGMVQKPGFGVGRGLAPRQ
Sequence,log2 enrichment
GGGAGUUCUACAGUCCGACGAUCCACAGACAACACGCACCCACACAGACACAGAGGGAAGGGGUUGGGAUGGGGACAGGGUGCACAGCAAAGCGGGGUAGGACCCCAGCCCCUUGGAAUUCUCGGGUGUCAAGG,-0.147
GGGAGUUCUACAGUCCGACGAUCUUUUGCAUUUAGGGUUUUAACCAAGAAGAUCUGGAAGAAGAAAAAGGUGAAACACAGGUAAAAGAAGCAGAAGAUUCAGAUUCUGAUGAUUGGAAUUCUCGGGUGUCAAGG,-2.7
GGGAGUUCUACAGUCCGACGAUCUCCUGUGCUACACAUCGUAUGUACCGAAUCGGGGCCCCCCGGCCCCCCGGCCCCCCGGGGAAAGUAUUAUGUUACGCCGUUCGGAUCUGCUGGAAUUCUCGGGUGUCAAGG,-0.81
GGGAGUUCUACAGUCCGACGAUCUAACUUGAGAGGAGGAUCUGAUGGAUAUGGCAGUGGACGUGGAUUUGGGGAUGGCUAUAAUGGGUAUGGAGGAGGACCUGGAGGUGGCAAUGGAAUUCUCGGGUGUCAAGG,1.49
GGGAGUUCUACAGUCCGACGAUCUCCCCAGGGCCUGGCCUACUCAAUCUCUCCCACCUCAUCCUCUGGCAUGGACGCAGUCAGGGAGUCUGCUCCAAGCAGACACUGGUGGUCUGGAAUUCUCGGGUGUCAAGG,-0.991
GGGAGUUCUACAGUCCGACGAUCCUCAAGUCCUGUGCUACACAUCGUAUGUACCGAAUCGGGAGGGAGGGGAGGGGAAAGUAUUAUGUUACGCCGUUCGGAUCUGCACUUCCAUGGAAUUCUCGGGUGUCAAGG,3
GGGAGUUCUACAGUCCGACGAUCAAGUCCUGUGCUACACAUCGUAUGUACCGAAUCGGGUUUUUUUGGGUGGGUUUGGGAAAGUAUUAUGUUACGCCGUUCGGAUCUGCACUUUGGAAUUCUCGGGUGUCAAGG,0.932
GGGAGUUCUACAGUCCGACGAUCUCCUGUGCUACACAUCGUAUGUACCGAAUCGGGAAAAAGGGUUUUUGGGUUUUUUUGGGAAAGUAUUAUGUUACGCCGUUCGGAUCUGCAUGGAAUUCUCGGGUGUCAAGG,-0.657
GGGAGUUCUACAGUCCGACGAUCUCCUGUGCUACACAUCGUAUGUACCGAAUCGGGGUUUUUGGGGUUUUUGGGGUUUGGGGAAAGUAUUAUGUUACGCCGUUCGGAUCUGCAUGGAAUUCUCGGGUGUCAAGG,1.79
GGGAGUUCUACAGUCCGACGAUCGUCCUGUGCUACACAUCGUAUGUACCGAAUCGGGAAAGGGAAAAAAAGGGAAAAAGGGAAAGUAUUAUGUUACGCCGUUCGGAUCUGCACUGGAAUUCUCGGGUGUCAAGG,-0.401

# Study 2 — method: RNA Bind-n-Seq; molecule type: RNA; matrix: in vitro; tested at: 365 nM; relative to: no-protein control; direction: higher = stronger binding
# Target: RNA binding protein fox-1 homolog 2, RRM domain, GST-SBP tag (RBFOX2, Homo sapiens, UniProt O43251-10, residues 100-194)
# Setting: natural RNA segment, single round, ends assumed
# Construct (chain): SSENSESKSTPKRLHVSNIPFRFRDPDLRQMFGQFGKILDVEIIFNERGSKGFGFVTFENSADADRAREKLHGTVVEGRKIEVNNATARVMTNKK
Sequence,RBNS enrichment (R)
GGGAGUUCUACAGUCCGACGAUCGUCAUUGGUUUGAUUGUCUCACUGUCCUUCAUUCAGGGCUCUGAGUUUCCUUUGGGCUGCCUUUCUAUCACAUUUGUGAAGGAUGGAUUUCUCAGCAGGGCUGAUGCUGCUGGAAUUCUCGGGUGCCAA,0.362
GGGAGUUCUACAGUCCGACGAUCUGGUGGUGGGAGCUUACCGCCACCUAUUCAAGCUCUCAGCUACUCCUGAAACGGGCAGAGAUGAUGAACAGAAGUGUAUGUAAAUACAGCAGCUAGUGGGAGAGCACCAGUGGAAUUCUCGGGUGCCAA,0.539
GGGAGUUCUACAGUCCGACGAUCACUCUACUGCAAGACUUAAAUAGUUCAGUAUAAAUUGUCGUUUUUUUCUUGUGCUGACUAACUAUAAGCAUGAUCUUGUUAAUGCAUUUUUGAUGGGAAGAAAAGGUACAUGGAAUUCUCGGGUGCCAA,7.83
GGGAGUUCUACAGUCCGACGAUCUCAGACCAAACUAAGUGCUUCCAGAUCCUUUCGGUGCAAUUUCAGAGCUGUGCCAGAUGCUAGACACAUUUAAUAGCUGUCAGAUCAGCUCAUGAUCAUAUCAUGAGAAAUGGAAUUCUCGGGUGCCAA,0.246
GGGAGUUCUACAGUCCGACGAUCUGGCCCGUGGACAGGAUAAGCAGAUGCACCUGUGACUGACUGGAGGCGUGUUGCUGUGUAUCCCGGGCAUCCAUGGGUUCCAACUGCCACUGCCCCAGUCUUGGCCAGAGUGGAAUUCUCGGGUGCCAA,0.829
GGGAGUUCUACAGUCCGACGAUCCGGUUGUGUUUGGUGCUGACACUCUGAUCCCGAAGCCAGGGAGCCCCAAGGGGCUGCAUGACCCUGGGGUGCCCCACACAGUUCAGCCCUGCCUGGCAGGGACGCCAGUAUGGAAUUCUCGGGUGCCAA,8.38
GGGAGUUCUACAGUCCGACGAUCCUCUCGCUGUCCUCACUUUGCAGGGGCUCCUCCUCAACAUUUGCAUGCACCUGCAAGAAUUGGGAAGAAAGAGCAUUUAUUAGGCACUGUAGCAAUUUGCAUUUUAAAAUUGGAAUUCUCGGGUGCCAA,2.42
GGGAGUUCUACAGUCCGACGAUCCCCAAGCAAGGCGUCACCGAGGAGGAAGAAAGGGGGUACUCUCAUGUCUGCUUACUCACAAAAACAGAUAGUGGCUUAGGAAUUGUGGUUAUAUCCAGUUAUACAGGCGAUGGAAUUCUCGGGUGCCAA,0.341
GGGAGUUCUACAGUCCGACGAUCUGUAGUUGGCACCAUGGUAUCAUAUAUUAAAACAAUAAUGCAAUUAGAAUUUGGGAGAAGCAAAUAUAGGUCCUGUGUUAAACACUACACAUUUGAAACAAGCUAACCCUUGGAAUUCUCGGGUGCCAA,0.4
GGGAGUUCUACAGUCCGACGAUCAACAUGUUGGUGGGUAAUUAUGCGAAUGUUUCCCUGUCCCUGAUUUCUCGAUUAGGCGUAUGGGUUUUGAAAAAGAGAUUUUUCAGAAGAUUGUCAGCUUCAGUAUUCAUUGGAAUUCUCGGGUGCCAA,0.353
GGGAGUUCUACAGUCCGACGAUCGCUGGAGGAAAUAGGCUUGUUUCCAGAGUUGUCCUUAUACAAAAUGUAUAAAAAGCAGUUUCUGGUGUGACUUGUGCUCUGCCUCCACCCCUUGACAUCCCAAAAUAUCCUGGAAUUCUCGGGUGCCAA,0.324
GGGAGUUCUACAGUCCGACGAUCCGAAGUUAGAUUUGAACAUAGAUAAGAUAGGUUAUUCCAGUUGAGAAUAUUGUUCGAAGAAUGUCUGUGAAUGCAGACAUGGGUCCUGCUUAGUGCCAUAGGUAGACUGAUGGAAUUCUCGGGUGCCAA,0.305

# Study 3 — method: protein binding microarray; molecule type: double-stranded DNA, one strand shown; matrix: in vitro; tested at: not given; relative to: not given; direction: higher = stronger binding
# Target: Histone acetyltransferase KAT6A, both winged helices, GST fusion (KAT6A, Homo sapiens, UniProt Q92794, residues 1-181)
# Setting: 8-mer, flanks averaged, mean of 2 arrays, mostly near background
# Residues (chain): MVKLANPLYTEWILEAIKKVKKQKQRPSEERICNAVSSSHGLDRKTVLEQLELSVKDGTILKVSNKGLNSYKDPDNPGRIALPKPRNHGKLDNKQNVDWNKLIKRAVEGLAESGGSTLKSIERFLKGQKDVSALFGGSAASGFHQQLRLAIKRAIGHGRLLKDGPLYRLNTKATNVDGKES
Sequence,E-score
AGTCAAGG,-0.194
GAGCATGC,-0.0861
ACGCCTAG,0.136
GCTCCTCC,-0.109
AACTAGCA,-0.25
AAGCGAAA,-0.132
AGTCTGGC,-0.167
AAGAGCTG,-0.18
CCACGCAA,-0.0125
CCTGTAAA,-0.189
CCACGTGC,-0.0184
AGACCGAA,0.0648
AAGAAGAA,-0.0292
CTTCCAAC,-0.0801
ACATAGTA,-0.0601
CATGTGGG,-0.0289
CGGCGGCA,0.352
CGAGTGCA,0.0551
AAGACTTG,-0.0308
CGAGCACA,-0.0987
AACCGCTC,0.203
CCGAGATA,-0.0133
AACCGTCA,0.0426
AGTTAAGC,-0.037
ACCGAGGA,-0.0993

# Study 4 — method: RNA Bind-n-Seq; molecule type: RNA; matrix: in vitro; tested at: not given; relative to: input RNA pool; direction: higher = stronger binding
# Target: RING finger protein unkempt homolog, zinc fingers 1-6, GST-SBP tag (UNK, Homo sapiens, UniProt Q9C0B0, residues 30-357)
# Setting: RNA with constant flanks, human and mouse sites, ends assumed
# Residues (chain): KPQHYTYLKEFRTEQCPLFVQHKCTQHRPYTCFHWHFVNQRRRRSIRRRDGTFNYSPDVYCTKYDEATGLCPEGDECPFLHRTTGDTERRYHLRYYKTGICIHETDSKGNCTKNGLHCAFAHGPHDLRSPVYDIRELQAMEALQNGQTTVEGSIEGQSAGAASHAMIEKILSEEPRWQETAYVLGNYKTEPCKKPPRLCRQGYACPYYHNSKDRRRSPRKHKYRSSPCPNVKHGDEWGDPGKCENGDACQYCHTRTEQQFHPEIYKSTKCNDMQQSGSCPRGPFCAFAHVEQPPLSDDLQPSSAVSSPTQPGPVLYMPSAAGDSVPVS
Sequence,bound/input enrichment
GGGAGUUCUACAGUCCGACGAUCGAAUUUUGUGCAUUUUCUCAGACAUUGCAACCUCAGAACAGGGAUGCUUUUUUCAAAACCUUAGCAAAAUUGGGAAUUCUUCCAGCUCUUGAAAUUGUAAUGGGCAUGGAUGACUUGCAACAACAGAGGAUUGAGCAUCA,0.295 ratio
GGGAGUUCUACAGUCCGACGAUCAUUUGGUCAAGAUACUCACUUGUAAUUAUUCCAAAAAAUUGGAGUCUGUUUGCUGUUAAUUUCUUUGUGGGGGCAGCAGGAGCCUCUCAGCUUUUUCGUAUUUGGAGAUAUAACCAAGAACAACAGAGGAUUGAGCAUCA,0.242 ratio
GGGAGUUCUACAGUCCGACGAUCUCUCCCAUAACAAAUGAUGGGGAAGAUGAAUUUGUUCCUUCAGAUGGCUUAGAUAAAGAUGAGUAUGCUUUUUCUUCAGGCAAAUCCAAAGCUACUCCAGAAAAAUCUUCAAAUGACAAACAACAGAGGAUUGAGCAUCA,0.28 ratio
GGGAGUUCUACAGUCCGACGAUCGACCGGAACCCCUACUACGGGGGCGAGAGCUCCUCCAUCACACCCCUGGAGGAGCUGUAUAAGCGUUUUCAGUUGCUGGAGGGGCCCCCUGAGUCGAUGGGCCGAGGCCGAGACUGGAAUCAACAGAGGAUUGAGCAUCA,0.0832 ratio
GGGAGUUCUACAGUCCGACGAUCCACUCCGUCUCAAUAUGUCUCAAGAUGGCGGCCAAUGUGGGAUCGAUGUUUCAAUAUUGGAAGCGCUUUGAUUUACAGCAGCUGCAGAGAGAACUUGAUGCCACCGCAACAGUAUUGGCACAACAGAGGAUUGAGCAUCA,0.169 ratio
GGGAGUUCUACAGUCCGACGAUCUUUCUCUUCCACAUGAAAGUAGUAGUUCAGAUGCAAGCUAAGCUGUUUAAUAAGAUUGUUUUUAGUUUAUGUAAAUACUUGUAAAUUGGUCAGUACCUGUAUUGUACAUUUAAAUAUAAACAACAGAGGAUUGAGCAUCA,2.22 ratio
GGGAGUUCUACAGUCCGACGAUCUCAGACAUGGACUACAUCCAGACCGACGCCAUCAUCAACUAUGGAAACUCGGGAGGCCCGUUAGUAAACCUGGACGGUGAAGUGAUUGGAAUUAACACUUUGAAAGUGACAGCUGGAAUCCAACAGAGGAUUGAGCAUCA,0.38 ratio
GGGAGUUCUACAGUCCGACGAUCAUCAACCAAGCUGCUCUUCUCAGCAUCCCUGGCUUUGUGGAACGGCUUUGCAAACUGGCAACUAGGAAAGUGUCAGAGUCAACGGGCACAGCCAGCUUCCUUCAAGAACUGGAGGAGUGGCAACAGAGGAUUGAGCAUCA,0.204 ratio
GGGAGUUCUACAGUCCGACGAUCGAAGGUUCCAAGACCUGGGAUCGAUUCCAGAUGAGGAUCCACAAGCGACUCAUUGAUUUACAUAGUCCUUCUGAGAUUGUUAAGCAGAUUACUUCCAUCAGUAUUGAGCCGGGAGUUGAGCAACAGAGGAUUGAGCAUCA,0.252 ratio
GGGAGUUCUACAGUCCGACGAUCGCUAUGCAGGCUUUGACUCUUCUAGGAGCAUGUGUAUCAAACUGUGGCAAAAUUUUUCAUUUAGAAGUAUGUUCAAGAGAUUUUGCUAGUGAAGUAAGCAACGUAUUAAAUAAGGGUCAUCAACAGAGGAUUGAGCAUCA,2.27 ratio
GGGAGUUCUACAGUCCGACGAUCCAGCAAAAUGUGACCCAGGUGGCACAUUCUCCACAAGGUUACAACACAGCAAGGGAGAAGCCAACCCGAGAGGUGCAGGAGGUGUCUCGAAAUAAUGAUGUGUGGCAGAACCAUGAAGCACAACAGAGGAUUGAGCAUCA,0.183 ratio
